# Results pooled from the literature.
# Every numbered part comes from another study and shows a few of its results, in no order. Substitutions count along the parent as printed.

# Sample 1
# Target: Phosphate system positive regulatory protein PHO4, full length, GST-tagged (PHO4, Saccharomyces cerevisiae, UniProt P07270, residues 1-312)
# Technique: competition protein-binding microarray
# Form: double-stranded DNA, one strand shown
# Matrix: in vitro
# Concentration: 2 µM
# Notes: whole 60-bp probe, lowest competitor level
# With: Cbf1 competitor, 0.05 µM
# Reading: higher = stronger binding
# Target sequence (chain): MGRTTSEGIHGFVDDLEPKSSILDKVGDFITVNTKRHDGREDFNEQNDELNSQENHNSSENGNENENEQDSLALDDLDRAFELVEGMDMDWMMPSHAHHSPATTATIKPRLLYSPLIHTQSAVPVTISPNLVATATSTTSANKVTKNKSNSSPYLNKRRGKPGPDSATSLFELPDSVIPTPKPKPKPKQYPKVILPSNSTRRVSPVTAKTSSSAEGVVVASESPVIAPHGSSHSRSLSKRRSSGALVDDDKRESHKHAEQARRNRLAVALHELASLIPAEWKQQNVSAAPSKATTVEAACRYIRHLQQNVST
Sequence,fluorescence intensity [a.u.]
TCAGTATAGCAGCGACGCGTGGGTATCAGGAAGAATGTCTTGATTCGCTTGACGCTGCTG,9750
GTCTTGTCTCATTGTTTGGTGGGTGTCCCCACTTCAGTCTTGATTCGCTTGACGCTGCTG,4810
ATATGCTTCCTTTGTCACGTGCAAATTCTGACTCCAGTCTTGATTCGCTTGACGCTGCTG,16700
TACCAGGTCTTTTAGCACGCTGAACATAATACACAGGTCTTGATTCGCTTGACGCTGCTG,7730
ATGAATGCGGACCATCACCTGCAACAGCAGCAGCAAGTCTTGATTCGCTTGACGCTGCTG,4450
CTTCTGTAAATTTGGGCGGTGGGTGGACGCGCCCCGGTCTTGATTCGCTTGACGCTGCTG,4440
AACTCTCGCAGCCGTCACGTGCAAATTGATACAAGTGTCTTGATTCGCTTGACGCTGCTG,15600
AAAGCGGTAATTTGGACGGTGGGTGCAGATATCTATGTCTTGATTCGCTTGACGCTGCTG,4050
CTTTCCCGATCTTTTCACGTGCAATTAGCACATTTGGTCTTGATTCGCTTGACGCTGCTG,13300
ACTTATCTGTCGAATCTCGTGACGGCACCTCCGACAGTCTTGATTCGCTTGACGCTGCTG,7610
AAATTACTAAGTTGCCGCGTGGGTGACGCCGTATGAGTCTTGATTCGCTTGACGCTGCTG,10500
ATATGGATTGATTTTCACATGTATCGTTTATGAGTAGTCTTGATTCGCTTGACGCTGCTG,6830
CTAGTATTGAATGTTTTCGTGATGGTTTATTGAGACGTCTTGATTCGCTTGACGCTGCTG,4870
CGGCTGGGTCGGGCCCACGTGGACCCGGCGGCAAGCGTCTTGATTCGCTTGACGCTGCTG,17700
CTTCTGTAAATTTGCGCAGTGGGTGGACGCGCCCCGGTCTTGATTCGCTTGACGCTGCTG,3670
TCTCGGTTGTTCAAGGTCGTGCTAACCATATGGCATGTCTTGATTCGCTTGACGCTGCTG,9420
TCCAAAACACAGGGGCACGTGCATCCTTGTGGCACTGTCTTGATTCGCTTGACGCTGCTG,18800
TACTGGAGTATTCGTCACGTGCCAGTGTGGCCCTGTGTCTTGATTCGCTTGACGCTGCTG,17100
TGCGCAACAACTTGTCGTGTGGGTGTATGTCTAGAAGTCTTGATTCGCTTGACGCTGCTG,6680

# Sample 2
# Target: BATF, bZIP domain (human)
# Technique: DHFR protein complementation
# Matrix: yeast
# Notes: single substitutions, most at no-binding floor
# Relative to: wild-type JUN-FOS pair
# Reading: higher = stronger binding
# Parent: JUN, bZIP domain (human); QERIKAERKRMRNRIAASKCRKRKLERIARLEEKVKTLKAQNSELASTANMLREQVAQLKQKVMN; partner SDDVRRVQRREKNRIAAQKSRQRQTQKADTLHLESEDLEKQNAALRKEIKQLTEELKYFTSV
Substitution,binding fitness [natural log]
E32M,-0.174
E44D,-0.154
N42M,-0.532
A29M,-0.301
S43L,-0.0196
A40F,-0.0867
K34M,-0.153
Q55I,-0.283
L59C,-0.0307
L38Y,-0.763
A49M,-0.209
E33R,-0.0884
E32K,-0.103
A40E,0.0173
E33Q,-0.188
Q58R,-0.059
E32R,-0.0584
A49H,-0.434
I28N,-0.0552
A57I,-0.206
M51P,-0.877

# Sample 3
# Target: RNA binding protein fox-1 homolog 2, RRM domain, GST-SBP tag (RBFOX2, Homo sapiens, UniProt O43251-10, residues 100-194)
# Technique: RNA Bind-n-Seq
# Form: RNA
# Matrix: in vitro
# Concentration: 365 nM
# Notes: natural RNA segment, single round, ends assumed
# Relative to: no-protein control
# Reading: higher = stronger binding
# Construct (chain): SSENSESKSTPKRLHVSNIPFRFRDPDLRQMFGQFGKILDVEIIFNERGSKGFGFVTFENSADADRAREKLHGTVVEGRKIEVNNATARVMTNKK
Sequence,RBNS enrichment (R)
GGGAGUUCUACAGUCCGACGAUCUGGAAAAGGCACAUGCCGAAGAUACUCAAGAGCUCCCAAGAUUUGCUUGAGGCUAGCCCAGUGAAAAAAACCAGAGACUCAUGUUUCCAGGGGUCAGUCUGUCAGGCAGGUGGAAUUCUCGGGUGCCAA,2.79
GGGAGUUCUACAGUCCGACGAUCACACAGGCCUCCUGUAGUCAUAGCAACAGAGAUGACCUAGGUGCACCCACCUUAGGUGGAGGACUUCCCCAUGCACACCACCACCCCUCUUAGAGCACAGGCUAAGGGCCUGGAAUUCUCGGGUGCCAA,0.451
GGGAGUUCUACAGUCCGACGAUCGGGCCCUGGAAAACGUGAGAGACUGCCCUGAGCUGGUCCAGUGGGCCAGCACUUUAUACCAACUCAGCAUUUAAGGGAAGUAUCUUAGAUUGCCUCCAUCUCAAUGUGAAUGGAAUUCUCGGGUGCCAA,0.926
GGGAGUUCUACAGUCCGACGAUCACUUACAUUCAAAGGGGAACAGAAAUCAUUCUAAGCAGGAAAAUACUUCCACUUUUUUUUUUUCAAGUAUCUCUCUAAUAACUAAAUGCCACUUAUUUGCAUUCUCCUUGUGGAAUUCUCGGGUGCCAA,0.436
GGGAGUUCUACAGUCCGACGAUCAAUUUAAACAAAAAUCUGAACUCUCAAAAGUCUAUUUUUCUAAACUGAAAAUGUAAAUUUAUACAUCUAUUCAGGAGUUGGAGUGUUGUGGUUACCUACUGAGUAGGCUGUGGAAUUCUCGGGUGCCAA,0.425
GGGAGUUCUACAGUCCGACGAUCAUGAAUUGCAAUAACCAGCUUCACACAAGCAUAACUGAUAAACGCGAGUGCUAUUGUAGUCUUGGCAAGUGAGCCAAGAACCUAGGAGCAGGGCCAUUCCUACUGAAGGAUGGAAUUCUCGGGUGCCAA,0.379
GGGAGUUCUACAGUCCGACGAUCUGAUGAGACUGUUAGGAUUGAUAAACAUUUGUUGUUUGAACCCAGCUAUCCAAACUGGGGAAGAAGGGGAAAUGGUUGUUACCAACAAUCUCUAGUAGUUAUUUUAAUCUUGGAAUUCUCGGGUGCCAA,0.24
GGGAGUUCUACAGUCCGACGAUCUUUUUAGGCCACAUUGACAGUGGUGGGCGGGGAGAAGAUAGGGAACACUCAUCCCUGGUCGUCUAUCCCAGUGUGUGUUUAACAUUCACAGCCCAGAACCACAGAUGUGUUGGAAUUCUCGGGUGCCAA,0.26

# Sample 4
# Target: Ras GTPase-activating protein-binding protein 1, full length (G3BP1, Homo sapiens, UniProt Q13283)
# Sequence of UniProt Q13283 (whole entry, looked up): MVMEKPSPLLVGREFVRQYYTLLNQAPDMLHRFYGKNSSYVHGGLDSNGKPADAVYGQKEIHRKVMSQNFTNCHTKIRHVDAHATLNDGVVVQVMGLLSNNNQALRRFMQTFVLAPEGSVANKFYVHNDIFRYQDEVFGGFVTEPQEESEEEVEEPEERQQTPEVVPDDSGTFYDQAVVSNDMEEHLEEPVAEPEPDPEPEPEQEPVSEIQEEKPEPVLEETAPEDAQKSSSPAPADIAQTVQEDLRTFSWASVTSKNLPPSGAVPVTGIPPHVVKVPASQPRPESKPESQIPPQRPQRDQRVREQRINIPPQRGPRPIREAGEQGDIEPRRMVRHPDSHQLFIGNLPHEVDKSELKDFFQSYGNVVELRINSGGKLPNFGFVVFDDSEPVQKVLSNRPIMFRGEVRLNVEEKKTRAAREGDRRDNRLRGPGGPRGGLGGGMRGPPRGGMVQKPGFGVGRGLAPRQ
# Technique: RNA Bind-n-Seq
# Form: RNA
# Matrix: in vitro
# Concentration: 200 nM
# Notes: whole 134-nt RNA, ends assumed
# With: 150 mM LiCl
# Relative to: input library
# Reading: higher = stronger binding
# All molecules: 7-deaza-guanosine replaces G
Sequence,log2 enrichment
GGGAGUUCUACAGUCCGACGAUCGUCCUGUGCUACACAUCGUAUGUACCGAAUCAAAUUUAAAUUUUUAAAUUUUUUUAAAAAAGUAUUAUGUUACGCCGUUCGGAUCUGCACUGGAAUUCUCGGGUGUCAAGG,-2.93
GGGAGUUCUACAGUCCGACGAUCCAAGUCCUGUGCUACACAUCGUAUGUACCGAAUCGGAAAAAAAGGUUUGGUUUGGAAAGUAUUAUGUUACGCCGUUCGGAUCUGCACUUCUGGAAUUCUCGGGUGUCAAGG,-2
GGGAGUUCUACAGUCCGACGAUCAAGUCCUGUGCUACACAUCGUAUGUACCGAAUCGGGUUUGGGUUUUUUUGGGUGGGAAAGUAUUAUGUUACGCCGUUCGGAUCUGCACUUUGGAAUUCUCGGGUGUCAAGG,0.202
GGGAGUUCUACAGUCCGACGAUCAAGUCCUGUGCUACACAUCGUAUGUACCGAAUCGGAGGAAAAAAAGGUUUUUUUGGAAAGUAUUAUGUUACGCCGUUCGGAUCUGCACUUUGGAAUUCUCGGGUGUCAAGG,-1.29
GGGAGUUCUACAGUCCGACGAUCCAAGUCCUGUGCUACACAUCGUAUGUACCGAAUCGGGGAAAGGAAAGGGGAAAGGAAAGUAUUAUGUUACGCCGUUCGGAUCUGCACUUCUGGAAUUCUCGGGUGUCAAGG,-0.285
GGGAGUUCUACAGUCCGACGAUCUGGCCCUGGUGGCAUGCGGGGAGGAAGAGGUGGCCUCAUGGAUCGUGGUGGUCCCGGUGGAAUGUUCAGAGGUGGCCGUGGUGGAGCCAGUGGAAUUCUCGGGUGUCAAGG,0.111
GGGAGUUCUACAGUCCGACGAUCCAAGUCCUGUGCUACACAUCGUAUGUACCGAAUCGGGAAAAAGGGAAAGGGAGGGAAAGUAUUAUGUUACGCCGUUCGGAUCUGCACUUCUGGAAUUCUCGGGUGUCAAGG,-0.112
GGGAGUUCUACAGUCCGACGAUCGCAGGAAGUAAAAACAAAUGGAAAUGCUUCGGAUAGUGGCAGGCGUGGGGGUUGCUAAGGAAAGGGUGGGAUGGGAGUGGGUAAAGAGUUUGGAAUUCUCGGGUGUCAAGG,0.018

# A few entries again (sample 4):
Sequence,log2 enrichment
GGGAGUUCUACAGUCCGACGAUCGUCCUGUGCUACACAUCGUAUGUACCGAAUCAAAUUUAAAUUUUUAAAUUUUUUUAAAAAAGUAUUAUGUUACGCCGUUCGGAUCUGCACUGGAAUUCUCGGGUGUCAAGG,-2.93
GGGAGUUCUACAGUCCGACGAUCCAAGUCCUGUGCUACACAUCGUAUGUACCGAAUCGGAAAAAAAGGUUUGGUUUGGAAAGUAUUAUGUUACGCCGUUCGGAUCUGCACUUCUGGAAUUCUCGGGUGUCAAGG,-2
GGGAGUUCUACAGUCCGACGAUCAAGUCCUGUGCUACACAUCGUAUGUACCGAAUCGGGUUUGGGUUUUUUUGGGUGGGAAAGUAUUAUGUUACGCCGUUCGGAUCUGCACUUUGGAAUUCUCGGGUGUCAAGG,0.202
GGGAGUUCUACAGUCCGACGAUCAAGUCCUGUGCUACACAUCGUAUGUACCGAAUCGGAGGAAAAAAAGGUUUUUUUGGAAAGUAUUAUGUUACGCCGUUCGGAUCUGCACUUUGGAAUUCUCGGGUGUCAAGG,-1.29
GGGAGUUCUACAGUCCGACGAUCCAAGUCCUGUGCUACACAUCGUAUGUACCGAAUCGGGGAAAGGAAAGGGGAAAGGAAAGUAUUAUGUUACGCCGUUCGGAUCUGCACUUCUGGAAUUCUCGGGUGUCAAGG,-0.285
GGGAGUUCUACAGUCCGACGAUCUGGCCCUGGUGGCAUGCGGGGAGGAAGAGGUGGCCUCAUGGAUCGUGGUGGUCCCGGUGGAAUGUUCAGAGGUGGCCGUGGUGGAGCCAGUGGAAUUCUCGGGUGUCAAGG,0.111
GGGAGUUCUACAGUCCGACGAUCCAAGUCCUGUGCUACACAUCGUAUGUACCGAAUCGGGAAAAAGGGAAAGGGAGGGAAAGUAUUAUGUUACGCCGUUCGGAUCUGCACUUCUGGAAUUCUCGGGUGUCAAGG,-0.112
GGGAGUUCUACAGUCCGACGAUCGCAGGAAGUAAAAACAAAUGGAAAUGCUUCGGAUAGUGGCAGGCGUGGGGGUUGCUAAGGAAAGGGUGGGAUGGGAGUGGGUAAAGAGUUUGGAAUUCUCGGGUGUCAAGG,0.018
